Assay results from different studies.
Lines come from different studies, so protocols differ. ± gives the spread as reported. Values after ≈ are worked out from the molar mass of the structure shown.

SMILES	tested on	assay	test system	conditions	how to read	measurement	value
Cc1cc(/C=C/C#N)cc(C)c1-n1cnc2cnc(Nc3ccc(C#N)cc3)nc21	HIV-1	viral replication, single-round infection	RT mutant K103N/Y181C	–	–	EC50	41.4 ± 3.6 nM
CCCCCCCCCCCCCCCC(=O)N[C@@H](CCC(=O)NCCOCCOCCC(=O)NCCOCCOCCC(=O)NCCCC[C@H](NC(=O)[C@H](CC(=O)O)NC(=O)[C@H](CC(C)C)NC(=O)[C@H](Cc1ccc(O)cc1)NC(=O)[C@H](CCCCN)NC(=O)[C@H](CO)NC(=O)[C@H](Cc1ccc(O)cc1)NC(=O)[C@H](CC(=O)O)NC(=O)[C@H](CO)NC(=O)[C@@H](NC(=O)[C@H](Cc1ccccc1)NC(=O)[C@@H](NC(=O)CNC(=O)[C@H](CCC(N)=O)NC(=O)[C@@H](CO)NC(=O)[C@@H](N)Cc1c[nH]cn1)[C@@H](C)O)[C@@H](C)O)C(=O)N[C@@H](CCCNC(=N)N)C(=O)N[C@@H](CCCNC(=N)N)C(=O)N[C@@H](C)C(=O)N[C@@H](CCC(N)=O)C(=O)N[C@@H](CC(=O)O)C(=O)N[C@@H](Cc1ccccc1)C(=O)N[C@H](C(=O)N[C@@H](CCC(N)=O)C(=O)N[C@@H](Cc1c[nH]c2ccccc12)C(=O)N[C@@H](CC(C)C)C(=O)N[C@@H](CC(C)C)C(=O)N[C@@H](CC(N)=O)C(=O)N[C@H](C(=O)NCC(=O)NCC(=O)N1CCC[C@H]1C(=O)N[C@@H](CO)C(=O)N[C@@H](CO)C(=O)NCC(=O)N[C@@H](C)C(=O)N1CCC[C@H]1C(=O)N1CCC[C@H]1C(=O)N1CCC[C@H]1C(=O)N[C@@H](CO)C(N)=O)[C@@H](C)O)C(C)C)C(=O)O	–	qPCR, item: Fn, Pdgf, Timp1, Tnfα, F4/80	Sprague-Dawley rat ANIT model, liver	dose not given	–	mRNA level	decreased
CC(C)CC(C)n1ccn2cc(C(=O)NCc3ccc(F)cc3F)c(=O)c(O)c2c1=O (stereo not shown)	human immunodeficiency virus 1	single-round vector infection	integrase S230N	–	–	EC50	7.7 ± 0.3 nM
CC[C@H](C)[C@H](N)C(=O)N[C@@H](Cc1c[nH]c2ccccc12)C(=O)N[C@@H](CC(C)C)C(=O)N[C@H](C(=O)N[C@@H](C)C(=O)N[C@@H](CC(C)C)C(=O)N[C@@H](CCCCN)C(=O)N[C@@H](Cc1ccccc1)C(=O)N[C@@H](CC(C)C)C(=O)NCC(=O)N[C@@H](CCCCN)C(=O)N[C@@H](Cc1c[nH]cn1)C(=O)N[C@@H](C)C(=O)N[C@@H](C)C(=O)N[C@@H](CCCCN)C(=O)N[C@@H](Cc1c[nH]cn1)C(=O)N[C@@H](CCC(=O)O)C(=O)N[C@@H](C)C(=O)N[C@@H](CCCCN)C(=O)N[C@@H](CCC(N)=O)C(=O)N[C@@H](CCC(N)=O)C(=O)N[C@@H](CC(C)C)C(=O)N[C@@H](CO)C(=O)N[C@@H](CCCCN)C(=O)N[C@@H](CC(C)C)C(=O)N[C@@H](CS)C(N)=O)[C@@H](C)O	human red blood cells	–	–	pH 7.4	relative to: Triton X-100	EC50	> 100000 nM
CC(C)N1CCn2cc(C(=O)NCc3ccc(F)cc3F)c(=O)c(O)c2C1=O	HIV-1	viral replication, single-round vector infection	IN G140A/Q148K	–	–	EC50	243 ± 55.6 nM
O=C(NC1CCN(c2ncnc3[nH]cnc23)CC1)c1cccc(NS(=O)(=O)c2ccc(C(F)(F)F)cc2)c1	monkeypox virus E1/E12	–	–	0.04883 µM	–	inhibition	14.8%
CC(C)=CCc1c(O)ccc(-c2coc3cc(O)cc(O)c3c2=O)c1O	–	viral replication	SARS-CoV-2 trVLP system	100 µM	–	inhibition	> 90%
CC[C@H](C)[C@H](NC(=O)CNC(=O)[C@@H](NC(=O)[C@H](CCCNC(=N)N)NC(=O)[C@H](CO)NC(=O)[C@H](Cc1c[nH]cn1)NC(=O)[C@H](CCCNC(=N)N)NC(=O)[C@H](CS)NC(=O)CNC(=O)[C@@H](NC(=O)[C@H](CCCNC(=N)N)NC(=O)[C@H](Cc1ccccc1)NC(=O)[C@H](Cc1c[nH]cn1)NC(=O)[C@@H](NC(=O)[C@H](Cc1ccccc1)NC(=O)[C@H](CC(C)C)NC(=O)[C@H](CC(C)C)NC(=O)[C@H](CCC(N)=O)NC(=O)[C@H](CCC(N)=O)NC(=O)[C@H](CC(C)C)NC(=O)[C@@H](NC(=O)[C@H](CCCNC(=N)N)NC(=O)[C@@H](NC(=O)[C@H](CC(C)C)NC(=O)[C@H](C)NC(=O)[C@H](CCC(=O)O)NC(=O)[C@@H](NC(=O)CNC(=O)[C@@H](NC(=O)[C@H](Cc1c[nH]c2ccccc12)NC(=O)[C@@H](NC(=O)[C@@H](N)CC(=O)O)[C@@H](C)O)[C@@H](C)O)C(C)C)[C@@H](C)CC)[C@@H](C)CC)[C@@H](C)CC)[C@@H](C)CC)[C@@H](C)CC)C(=O)N[C@H](C(=O)N[C@@H](CCC(N)=O)C(=O)N[C@@H](CCC(N)=O)C(=O)N[C@@H](CCCNC(=N)N)C(=O)N[C@@H](CCCNC(=N)N)C(=O)N[C@H](C(=O)N[C@@H](CCCNC(=N)N)C(=O)N[C@@H](CC(N)=O)C(=O)NCC(=O)N[C@@H](C)C(=O)N[C@@H](CO)C(=O)N[C@@H](CCCCN)C(=O)N[C@@H](CO)C(=O)O)[C@@H](C)O)[C@@H](C)CC	–	JC-1 flow cytometry	purified mouse mitochondria	1 µM, 10 min	–	low membrane potential mitochondria	65%
COCCN1CCn2cc(C(=O)NCc3ccc(F)cc3F)c(=O)c(O)c2C1=O	human immunodeficiency virus 1	single-round vector infection	integrase R263K	–	–	EC50	5.5 ± 0.4 nM
Cc1cc(/C=C/C#N)cc(C)c1Nc1nc(Nc2ccc(C#N)cc2)ncc1N	HIV-1	viral replication, single-round infection	RT mutant D67E	–	–	EC50	4.5 ± 1.1 nM
O=C(NCc1ccc(F)cc1F)c1cn2c(c(O)c1=O)C(=O)N(CCCCCCO)CC2	human immunodeficiency virus 1	single-round vector infection	integrase R263K	–	–	EC50	32.2 ± 2.5 nM
CC[C@H](C)[C@H](NC(=O)[C@H](CCCCN)NC(=O)[C@H](Cc1c[nH]c2ccccc12)NC(=O)[C@H](CC(C)C)NC(=O)[C@H](CC(C)C)NC(=O)[C@H](CC(=O)O)NC(=O)[C@@H](NC(=O)[C@H](CCCNC(=N)N)NC(=O)[C@H](CCC(=O)O)NC(=O)[C@H](CCCNC(=N)N)NC(=O)[C@H](CC(=O)O)NC(=O)[C@H](CC(C)C)NC(C)=O)[C@@H](C)CC)C(=O)N[C@@H](C)C(=O)N[C@@H](CCCNC(=N)N)C(=O)N[C@@H](C)C(=O)NCC(=O)N[C@@H](C)C(=O)N[C@@H](CCCNC(=N)N)C(=O)N[C@@H](CO)C(=O)N[C@@H](C)C(=O)N[C@H](C(=O)NCC(N)=O)C(C)C	–	tryptophan fluorescence	POPC/POPG/chol 7:2:1 SUV	pH 7.5, 25 °C	–	membrane partition coefficient	26000 ± 10000
Nc1ccn(C2CCC(OC(C(=O)O)P(=O)(O)O)C2)c(=O)n1 (racemic)	HIV-1 reverse transcriptase M184I	enzyme activity, inhibitor	–	together with: poly(rI)·oligo(dC), [3H]dCTP	relative to: mutant over wild type	fold resistance	12 fold
C=C(C)C[C@H](OC)[C@H](O)C(=O)N[C@@H](OC)[C@@H]1CC(=O)C(C)(C)[C@@H](C[C@H](O)[C@@H](C)[C@H]2Cc3c(C)c(O)cc(O)c3C(=O)O2)O1	IMR-90	cell growth or viability	–	–	–	IC50	57 nM
CN1CCn2cc(C(=O)NCc3ccc(F)cc3F)c(=O)c(O)c2C1=O	human immunodeficiency virus 1	single-round vector infection	integrase S230N	–	–	EC50	7.4 ± 0.5 nM
CC[C@@H](C)[C@@H](NC(=O)[C@@H](CCCCN)NC(=O)[C@@H](CCCCN)NC(=O)[C@@H](CC(C)C)NC(=O)[C@@H](Cc1c[nH]c2ccccc12)NC(=O)CN)C(=O)NCC(=O)N[C@H](CCCCN)C(=O)N[C@H](CCCCN)C(=O)N[C@@H](C(=O)N[C@H](CCC(=O)O)C(=O)N[C@H](CCCNC(=N)N)C(=O)N[C@@H](C(=O)NCC(=O)N[C@H](CCC(N)=O)C(=O)N[C@H](Cc1c[nH]cn1)C(=O)N[C@@H](C(=O)N[C@H](CCCNC(=N)N)C(=O)N[C@H](CC(=O)O)C(=O)N[C@H](C)C(=O)N[C@@H](C(=O)N[C@@H](C(=O)N[C@H](CCC(N)=O)C(=O)N[C@@H](C(=O)N[C@@H](C(=O)NCC(=O)N[C@@H](C(=O)N[C@H](C)C(=O)N[C@H](CCC(N)=O)C(=O)N[C@H](CCC(N)=O)C(=O)N[C@H](C)C(=O)N[C@H](C)C(=O)N[C@H](CC(N)=O)C(=O)N[C@@H](C(=O)N[C@H](C)C(=O)N[C@H](C)C(=O)N[C@@H](C(=O)N[C@H](CC(C)C)C(=O)N[C@H](CCCCN)C(N)=O)[C@H](C)O)C(C)C)C(C)C)[C@H](C)CC)[C@H](C)O)[C@H](C)CC)[C@H](C)O)[C@H](C)O)C(C)C)[C@H](C)CC	Acinetobacter baumannii	–	isolate RKI 19/09, CAMHB	–	–	MIC	128 µg/mL (≈ 30.5 µM)

Repeated from above:
SMILES	tested on	assay	test system	conditions	how to read	measurement	value
C=C(C)C[C@H](OC)[C@H](O)C(=O)N[C@@H](OC)[C@@H]1CC(=O)C(C)(C)[C@@H](C[C@H](O)[C@@H](C)[C@H]2Cc3c(C)c(O)cc(O)c3C(=O)O2)O1	IMR-90	cell growth or viability	–	–	–	IC50	57 nM
CN1CCn2cc(C(=O)NCc3ccc(F)cc3F)c(=O)c(O)c2C1=O	human immunodeficiency virus 1	single-round vector infection	integrase S230N	–	–	EC50	7.4 ± 0.5 nM
